Published values pooled from the literature.
Numbers after ± are the reported error.

Compound | assay | test system | setting | quantity | result
C(#Cc1cncc(OC[C@@H]2CCN2)c1)c1ccccc1 | – | male Sprague-Dawley rat, plasma | oral, 75 mg/kg, 24 h | concentration | 60 ng/mL
O=C1NC2(CC2)COc2ncc(F)cc2[C@H]2COCCN2c2ccn3ncc1c3n2 | – | Sprague-Dawley rat, female, blood | oral, 2.5 mg/kg/day, 4 weeks, end of treatment, subacute toxicity | mean corpuscular haemoglobin | 19.7 ± 0.8 pg
CC(C)[C@@H]1NC(=O)CNC(=O)[C@H](CC(N)=O)NC(=O)[C@H](CCCNC(=N)N)NC(=O)[C@H](Cc2ccc(O)cc2)NC(=O)[C@H](C(C)C)NC(=O)[C@@H](NC(=O)[C@@H](NC(=O)[C@H](CC(N)=O)NC(=O)[C@H](Cc2c[nH]c3ccccc23)NC(=O)[C@H](C)NC(=O)[C@H](Cc2ccccc2)NC(=O)CNC(=O)[C@H](CCCCN)NC(=O)[C@H](Cc2ccccc2)NC(=O)[C@H](Cc2ccccc2)NC(=O)[C@H](CCCCN)NC(=O)OCC2c3ccccc3-c3ccccc32)C(C)C)CSSC[C@@H](C(=O)N[C@@H](Cc2c[nH]cn2)C(=O)N[C@@H](CCCNC(=N)N)C(=O)N[C@@H](CCCNC(=N)N)C(=O)N[C@@H](C)C(=O)N[C@@H](CC(N)=O)C(N)=O)NC(=O)[C@H](C(C)C)NC(=O)[C@H](CCCNC(=N)N)NC1=O | – | ICR mice, serum | intraperitoneal, 10 mg/kg, day 5 | calcium | 1.35 ± 0.06 mmol/L
CN1Cc2cc(Cl)ccc2-n2c(nnc2C2CCN(c3cccc([18F])n3)CC2)C1 | – | C57BL/6 mouse male, kidney | intravenous, dose not given, 5 min, with: blocking agent 10 mg/kg | tissue uptake | 9.63 ± 2.24 %ID/g
O=C(O)/C=C\c1ccc2occc2c1O[C@@H]1O[C@H](CO)[C@@H](O)[C@H](O)[C@H]1O | – | rat, plasma | oral, 500 mg/kg Eu + 217 mg/kg Pc extract, dosed as combined Eu and Pc extracts | Tmax | 2.83 ± 1.89 h
CCCCC[C@@H]1NC(=O)[C@@H](C)N(C)C(=O)[C@H](CCCCC)OC(=O)[C@@H](C)N(C)C(=O)[C@H](CCCCC)NC(=O)[C@@H](C)N(C)C(=O)[C@H](CCCCC)OC(=O)[C@@H](C)N(C)C1=O | PAMPA | – | 500 µM, pH 7.4, UV/ELSD/MS detection | log Papp | -5.24
CC[C@H](C)[C@H](NC(=O)[C@H](CCCCN)NC(=O)CNC(=O)[C@H](CC(C)C)NC(=O)[C@H](Cc1ccccc1)NC(=O)[C@H](CCCCN)NC(=O)[C@H](CO)NC(=O)[C@H](Cc1ccccc1)NC(=O)[C@H](Cc1c[nH]c2ccccc12)NC(=O)[C@H](CCC(N)=O)NC(=O)[C@@H](NC(=O)[C@H](Cc1ccccc1)NC(=O)CCCCCNC(=O)CN1CCN(CC(=O)O)CCN(CC(=O)O)CCN(CC(=O)O)CC1)C(C)C)C(=O)N[C@@H](CCC(=O)O)C(=O)N1CCC[C@H]1C(=O)N[C@@H](CC(=O)O)C(=O)N[C@H](C(=O)N[C@@H](CO)C(=O)N[C@@H](CCC(N)=O)C(=O)N[C@H](C(=O)N[C@@H](CCC(N)=O)C(=O)N[C@@H](CC(=O)O)C(=O)N1CCC[C@H]1C(=O)N[C@@H](CC(N)=O)C(=O)N[C@@H](CC(=O)O)C(=O)N[C@@H](CCC(N)=O)C(=O)N[C@@H](Cc1ccc(O)cc1)C(=O)N[C@@H](CCC(=O)O)C(=O)N1CCC[C@H]1C(=O)N[C@@H](Cc1ccccc1)C(=O)O)C(C)C)C(C)C [copper-64 labelled] | – | BALB/c mice, male, CT26 tumour-bearing, stomach | 2 h, anti-PD1 plus anti-CTLA4 treated | tissue uptake | 1.66 ± 0.6 %ID/g
C=CC(=O)Nc1cccc(Cn2ncc3cnc(Nc4cnn(CCOC)c4)nc32)c1 | – | Sprague-Dawley rat female, blood | oral, 180 mg/kg, day 28, 28-day subacute toxicity | mean corpuscular haemoglobin | 22.6 ± 1.28 pg
N=C(N)NCCC[C@H](NC(=O)[C@H](CCCNC(=N)N)NC(=O)[C@H](CCCNC(=N)N)NC(=O)[C@H](CCC(N)=O)NC(=O)[C@H](CCCNC(=N)N)NC(=O)[C@H](CCCNC(=N)N)NC(=O)[C@H](CCCCN)NC(=O)[C@H](CCCCN)NC(=O)[C@H](CCCNC(=N)N)NC(=O)CNC(=O)[C@H](Cc1ccc(O)cc1)NC(=O)[C@H](Cc1ccccc1)NC(=O)[C@H](Cc1ccccc1)NC(=O)[C@H](Cc1ccccc1)NC(=O)OCC1c2ccccc2-c2ccccc21)C(=O)O | – | 10 mM PBS | 64 µM, overnight, pH 7.4 | zeta potential | 23.7 mV
CC(C)[C@H](NC(=O)[C@@H](NC(=O)[C@H](CCCNC(=N)N)NC(=O)[C@H](CCCNC(=N)N)NC(=O)[C@H](CCCNC(=N)N)NC(=O)[C@H](CCC(N)=O)NC(=O)[C@H](CCCNC(=N)N)NC(=O)[C@H](CCCNC(=N)N)NC(=O)[C@H](CCCCN)NC(=O)[C@H](CCCCN)NC(=O)[C@H](CCCNC(=N)N)NC(=O)CN)[C@@H](C)O)C(=O)N[C@H](C(=O)N[C@@H](CO)C(=O)N1CCC[C@H]1C(=O)O)[C@@H](C)O | – | ICR mice, female, liver | intranasal, 10 mg/kg daily, 4 weeks | organ weight | 1.35 ± 0.235 g
Cc1sc2c(c1C)C(c1ccc(-c3cccc(NC(=O)c4cnn5cccnc45)c3)cc1)=N[C@@H](CC(N)=O)c1nnc(C)n1-2 | – | mouse | oral | oral bioavailability | < 5%
CN(C(=O)c1ccn2ncc(-c3ccc(C(N)=O)cc3)c2c1)c1ccc(C#N)cn1 | – | male Wistar rat | oral, dose not given, 14 days daily, solid dispersion | NOEL | 30 mg/kg/day
COc1cnc2cccc(N3CCc4c(cc(Cn5ccnc5)cc4-c4cn(C)nc4C(F)(F)F)C3=O)c2c1 | – | CD-1 mice | intraperitoneal, 50 mg/kg once daily, day 4 | body weight | 29.6 ± 0.5 g

Some of these lines once more:
Compound | assay | test system | setting | quantity | result
CN1Cc2cc(Cl)ccc2-n2c(nnc2C2CCN(c3cccc([18F])n3)CC2)C1 | – | C57BL/6 mouse male, kidney | intravenous, dose not given, 5 min, with: blocking agent 10 mg/kg | tissue uptake | 9.63 ± 2.24 %ID/g
